Published values gathered from unrelated publications.
Lines come from different studies, so protocols differ. Values joined by “and” are separate records of one study, mostly repeats; a detail may differ. ± marks the error that the study gave.
ache: Acetylcholinesterase (ache, Electrophorus electricus, UniProt O42275)
Sequence of UniProt O42275 (whole entry, looked up): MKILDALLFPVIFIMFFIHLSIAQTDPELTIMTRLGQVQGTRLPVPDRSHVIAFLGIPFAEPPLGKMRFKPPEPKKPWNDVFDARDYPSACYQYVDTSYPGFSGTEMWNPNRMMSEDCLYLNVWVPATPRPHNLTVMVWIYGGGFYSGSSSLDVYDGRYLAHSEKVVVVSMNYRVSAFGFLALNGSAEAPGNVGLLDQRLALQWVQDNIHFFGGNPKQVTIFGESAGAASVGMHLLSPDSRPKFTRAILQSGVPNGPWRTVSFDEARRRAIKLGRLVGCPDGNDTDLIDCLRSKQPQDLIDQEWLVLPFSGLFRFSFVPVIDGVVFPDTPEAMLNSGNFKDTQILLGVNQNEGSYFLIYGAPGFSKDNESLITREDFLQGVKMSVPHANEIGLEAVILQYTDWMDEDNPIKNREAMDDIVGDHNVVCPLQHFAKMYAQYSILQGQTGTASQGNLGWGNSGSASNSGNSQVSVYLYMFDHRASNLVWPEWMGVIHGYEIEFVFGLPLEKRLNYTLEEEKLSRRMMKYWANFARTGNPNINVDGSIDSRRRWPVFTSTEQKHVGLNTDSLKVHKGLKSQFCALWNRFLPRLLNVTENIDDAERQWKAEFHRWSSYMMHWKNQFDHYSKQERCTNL
dcp2 with Dcp1: mRNA decapping complex subunit 2, with Dcp1 (dcp2, Schizosaccharomyces pombe, UniProt O13828)
Sequence of UniProt O13828 (whole entry, looked up): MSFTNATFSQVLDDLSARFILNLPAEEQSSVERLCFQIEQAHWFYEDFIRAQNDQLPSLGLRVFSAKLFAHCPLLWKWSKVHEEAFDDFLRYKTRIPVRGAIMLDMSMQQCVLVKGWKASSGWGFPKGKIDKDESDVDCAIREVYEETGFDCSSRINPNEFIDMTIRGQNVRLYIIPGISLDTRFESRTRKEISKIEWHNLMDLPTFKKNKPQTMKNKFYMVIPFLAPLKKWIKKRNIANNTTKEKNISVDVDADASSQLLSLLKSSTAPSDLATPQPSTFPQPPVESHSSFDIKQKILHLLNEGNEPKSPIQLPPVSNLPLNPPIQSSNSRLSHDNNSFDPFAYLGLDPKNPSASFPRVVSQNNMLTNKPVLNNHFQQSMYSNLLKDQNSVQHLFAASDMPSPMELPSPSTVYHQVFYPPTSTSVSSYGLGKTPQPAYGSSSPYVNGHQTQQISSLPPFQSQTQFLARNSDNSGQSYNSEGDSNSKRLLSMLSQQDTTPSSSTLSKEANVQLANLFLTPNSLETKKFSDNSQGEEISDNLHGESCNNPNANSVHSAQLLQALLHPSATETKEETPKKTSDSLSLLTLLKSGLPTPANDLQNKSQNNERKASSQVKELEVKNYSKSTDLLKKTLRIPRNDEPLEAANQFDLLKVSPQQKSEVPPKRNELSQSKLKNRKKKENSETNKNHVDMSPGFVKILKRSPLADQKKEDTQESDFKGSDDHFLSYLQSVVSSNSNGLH
Sequence of UniProt P41143 (whole entry, unmodified, looked up): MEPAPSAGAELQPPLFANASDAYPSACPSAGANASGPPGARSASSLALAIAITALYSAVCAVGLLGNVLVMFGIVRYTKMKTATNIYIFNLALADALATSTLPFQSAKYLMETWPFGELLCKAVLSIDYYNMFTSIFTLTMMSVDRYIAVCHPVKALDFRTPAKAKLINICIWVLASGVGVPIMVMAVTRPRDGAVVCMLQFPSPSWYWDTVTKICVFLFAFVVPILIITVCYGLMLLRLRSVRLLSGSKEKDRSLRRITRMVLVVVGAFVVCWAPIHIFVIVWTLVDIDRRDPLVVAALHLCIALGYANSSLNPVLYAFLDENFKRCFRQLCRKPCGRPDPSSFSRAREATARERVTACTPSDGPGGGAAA
Sequence of UniProt P18031 (whole entry, looked up): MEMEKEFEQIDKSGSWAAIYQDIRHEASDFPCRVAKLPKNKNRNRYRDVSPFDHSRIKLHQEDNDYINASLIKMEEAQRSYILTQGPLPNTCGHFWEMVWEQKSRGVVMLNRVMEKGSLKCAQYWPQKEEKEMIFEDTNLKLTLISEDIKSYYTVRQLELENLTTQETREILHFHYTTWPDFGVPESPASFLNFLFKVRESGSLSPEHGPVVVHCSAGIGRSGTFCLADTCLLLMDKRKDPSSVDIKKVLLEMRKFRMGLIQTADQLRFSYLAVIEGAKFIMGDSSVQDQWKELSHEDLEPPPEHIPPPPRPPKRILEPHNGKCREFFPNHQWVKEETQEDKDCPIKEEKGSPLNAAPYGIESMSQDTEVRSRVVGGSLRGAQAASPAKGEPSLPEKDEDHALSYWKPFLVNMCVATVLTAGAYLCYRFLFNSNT
Sequence of UniProt P34969 (whole entry, looked up): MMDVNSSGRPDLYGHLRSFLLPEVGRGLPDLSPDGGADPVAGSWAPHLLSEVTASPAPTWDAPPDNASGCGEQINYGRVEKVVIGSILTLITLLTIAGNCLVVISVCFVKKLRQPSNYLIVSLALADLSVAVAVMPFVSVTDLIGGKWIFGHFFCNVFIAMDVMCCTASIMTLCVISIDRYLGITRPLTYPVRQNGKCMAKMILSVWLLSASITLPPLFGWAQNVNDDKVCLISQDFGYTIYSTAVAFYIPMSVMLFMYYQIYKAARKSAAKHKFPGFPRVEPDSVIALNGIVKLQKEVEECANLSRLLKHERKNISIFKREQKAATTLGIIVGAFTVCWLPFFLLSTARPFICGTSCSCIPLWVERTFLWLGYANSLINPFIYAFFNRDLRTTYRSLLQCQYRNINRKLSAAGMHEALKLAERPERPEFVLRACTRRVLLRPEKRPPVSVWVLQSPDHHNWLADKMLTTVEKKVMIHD
Sequence of UniProt P21728 (whole entry, looked up): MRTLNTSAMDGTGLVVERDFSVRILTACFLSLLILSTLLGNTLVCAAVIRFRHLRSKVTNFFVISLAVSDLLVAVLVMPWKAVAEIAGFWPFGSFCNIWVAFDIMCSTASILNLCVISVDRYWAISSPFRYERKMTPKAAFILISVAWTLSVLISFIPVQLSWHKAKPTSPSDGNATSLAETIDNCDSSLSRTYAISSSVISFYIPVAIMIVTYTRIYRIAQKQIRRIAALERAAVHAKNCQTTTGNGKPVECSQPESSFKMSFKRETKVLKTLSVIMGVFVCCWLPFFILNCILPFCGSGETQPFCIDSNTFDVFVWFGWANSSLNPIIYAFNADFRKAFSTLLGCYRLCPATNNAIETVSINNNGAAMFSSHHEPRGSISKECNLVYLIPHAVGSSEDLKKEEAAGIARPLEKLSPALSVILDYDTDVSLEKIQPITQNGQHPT
Sequence of UniProt P23975 (whole entry, looked up): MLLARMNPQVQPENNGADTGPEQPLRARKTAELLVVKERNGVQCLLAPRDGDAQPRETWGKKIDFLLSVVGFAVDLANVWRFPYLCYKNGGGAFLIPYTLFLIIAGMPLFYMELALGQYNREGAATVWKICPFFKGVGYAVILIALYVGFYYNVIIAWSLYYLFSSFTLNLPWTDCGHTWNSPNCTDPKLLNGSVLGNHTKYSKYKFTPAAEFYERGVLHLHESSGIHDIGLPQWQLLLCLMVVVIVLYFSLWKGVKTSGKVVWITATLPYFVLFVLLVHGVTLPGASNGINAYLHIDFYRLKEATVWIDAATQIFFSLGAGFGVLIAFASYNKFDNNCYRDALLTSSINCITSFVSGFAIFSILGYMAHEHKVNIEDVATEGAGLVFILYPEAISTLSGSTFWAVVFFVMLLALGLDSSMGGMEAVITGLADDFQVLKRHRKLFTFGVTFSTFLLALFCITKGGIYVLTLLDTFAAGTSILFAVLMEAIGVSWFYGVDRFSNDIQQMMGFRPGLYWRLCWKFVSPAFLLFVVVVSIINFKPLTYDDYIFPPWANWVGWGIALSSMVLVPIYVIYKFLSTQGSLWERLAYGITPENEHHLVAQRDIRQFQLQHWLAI
Sequence of UniProt P54756 (whole entry, looked up): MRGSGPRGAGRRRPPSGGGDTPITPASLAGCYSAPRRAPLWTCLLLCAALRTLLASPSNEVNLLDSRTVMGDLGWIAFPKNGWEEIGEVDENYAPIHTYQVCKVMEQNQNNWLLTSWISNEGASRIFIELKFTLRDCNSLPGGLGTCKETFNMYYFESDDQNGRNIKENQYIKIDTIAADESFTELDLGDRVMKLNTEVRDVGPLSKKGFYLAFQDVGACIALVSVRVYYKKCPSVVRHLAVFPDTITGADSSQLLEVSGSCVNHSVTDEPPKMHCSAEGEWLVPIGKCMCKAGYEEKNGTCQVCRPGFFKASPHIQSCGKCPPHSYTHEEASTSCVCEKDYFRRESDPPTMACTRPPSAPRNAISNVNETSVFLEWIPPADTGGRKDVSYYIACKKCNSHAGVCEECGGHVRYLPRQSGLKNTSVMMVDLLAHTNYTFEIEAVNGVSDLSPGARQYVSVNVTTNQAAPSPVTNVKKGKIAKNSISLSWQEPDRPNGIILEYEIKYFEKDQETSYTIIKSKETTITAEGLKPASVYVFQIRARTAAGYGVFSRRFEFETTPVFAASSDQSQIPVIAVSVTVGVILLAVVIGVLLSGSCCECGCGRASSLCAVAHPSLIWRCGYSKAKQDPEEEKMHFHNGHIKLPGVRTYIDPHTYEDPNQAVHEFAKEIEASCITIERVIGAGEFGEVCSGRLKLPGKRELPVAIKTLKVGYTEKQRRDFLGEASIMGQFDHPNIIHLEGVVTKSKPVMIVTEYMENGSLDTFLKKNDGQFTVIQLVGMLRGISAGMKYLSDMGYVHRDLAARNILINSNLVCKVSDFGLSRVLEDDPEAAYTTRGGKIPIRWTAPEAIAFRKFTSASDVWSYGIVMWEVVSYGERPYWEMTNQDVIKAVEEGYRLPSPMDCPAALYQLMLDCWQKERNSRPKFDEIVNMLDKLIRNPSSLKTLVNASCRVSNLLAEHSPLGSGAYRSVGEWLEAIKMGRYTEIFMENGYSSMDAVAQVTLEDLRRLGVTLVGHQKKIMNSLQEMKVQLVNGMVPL
Sequence of UniProt P0A7A9 (whole entry, looked up): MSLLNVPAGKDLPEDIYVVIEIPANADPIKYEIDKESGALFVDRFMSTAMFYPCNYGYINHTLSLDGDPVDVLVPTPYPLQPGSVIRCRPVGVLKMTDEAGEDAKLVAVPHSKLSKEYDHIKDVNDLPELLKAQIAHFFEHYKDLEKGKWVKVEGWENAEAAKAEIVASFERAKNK

| Compound | tested on | assay | test system | conditions | how to read | quantity | value |
| --- | --- | --- | --- | --- | --- | --- | --- |
| CC[C@H](C)[C@H](NC(=O)[C@H](CO)NC(=O)[C@H](Cc1ccc(O)cc1)NC(=O)[C@H](Cc1ccc(O)cc1)NC(=O)[C@H](CC(N)=O)NC(=O)CNC(=O)[C@H](CO)NC(=O)[C@H](Cc1ccc(O)cc1)NC(=O)[C@H](CO)NC(=O)[C@H](CO)NC(=O)[C@H](CC(N)=O)NC(=O)COCCOCCNC(=O)CN1CCN(CC(=O)O)CCN(CC(=O)O)CCN(CC(=O)O)CC1)C(=O)N[C@@H](CC(C)C)C(N)=O [copper-64 labelled] | – | dynamic PET | mouse, tamoxifen-induced PDAC, blood | intravenous, 0.1 µg/mouse, 1.6 min | – | tumour uptake | 23.2 %ID/mL |
| COc1ccccc1-c1n[nH]c2nc(N[C@H]3CC[C@H](NS(=O)(=O)CC(C)C)CC3)ncc12 | – | bead binding, competition bead pull-down, refers to: LINJ.05.0090 | Leishmania donovani extract | 10 µM | relative to: vehicle | relative abundance | 0.88 |
| NCCc1c[nH]c2ccc(Cl)cc12 | ache | enzyme activity, inhibitor, Ellman | – | 20 µM | – | inhibition | 40.3% |
| Cc1ccc2c(n1)c(-c1cccc(S(C)(=O)=O)c1)c(C)n2C/C(F)=C/CN | Estrogen receptor (ESR1, Homo sapiens, UniProt P03372) | ligand displacement, radioligand | – | 10 µM | – | inhibition | -9% |
| CCN(CC)C(=O)c1ccc(C(c2cccc(O)c2)N2CC(C)N(Cc3ccccc3)CC2C)cc1 (centres unmarked) | Delta-type opioid receptor (OPRD1, Homo sapiens, UniProt P41143, W274F) | – | – | – | – | Ki | 0.67 ± 0.11 nM |
| C[n+]1cn([C@@H]2O[C@H](COP(=O)([S-])OP(=O)(O)OP(=O)(O)OP(=O)([S-])OC[C@H]3O[C@@H](n4c[n+](C)c5c(O)nc(N)nc54)[C@H](O)[C@@H]3O)[C@@H](O)[C@H]2O)c2nc(N)nc(O)c21 (some centres unmarked) | dcp2 with Dcp1 | – | – | 200 µM, 0.25 h | – | inhibition | 66.2% |
| Cc1ccc(OC[C@H]2CCCN2C)cc1C(=O)N[C@H](C)c1cc(-c2cnn(C)c2)nc2ccccc12 | Vero E6 | – | – | 250 µM | – | viability | 0.632% and 0.158% |
| CCc1nc2ccc(C(=O)NCCN3CCOCC3)cn2c1N(C)C(=O)C1CCCCC1 | ache | enzyme activity, inhibitor, Ellman | – | 5 µM | – | inhibition | 68.7% |
| C[n+]1cn([C@@H]2O[C@H](COP(=O)(O)OP(=O)([O-])OP(=O)(O)O)[C@@H](O)[C@H]2O)c2nc(N)nc(O)c21 | dcp2 with Dcp1 | – | – | 200 µM, 0.5 h | – | inhibition | 15.1% |
| CCN(CC)CCOc1ccc(-c2nnn(Cc3ccc(OC)cc3)c2N)cc1 | GABA-A receptor | radioligand binding | HEK293 | 10 µM, with: 10000 nM radioligand | – | inhibition | -8.48% |
| O=C(NC1CCN(c2ncnc3[nH]cnc23)CC1)c1cccc(NS(=O)(=O)c2ccc(C(F)(F)F)cc2)c1 | mRNA cap guanine-N(7) methyltransferase (RNMT, Homo sapiens, UniProt O43148) | enzyme activity, inhibitor | – | 48.83 nM | – | inhibition | 10.3% |
| C/C(=N\OCCCN1CCCCC1)c1ccc(C(F)(F)F)cc1 | 5-hydroxytryptamine receptor 1B (HTR1B, Homo sapiens, UniProt P28222) | antagonist, cAMP | – | 10 µM | – | inhibition | 31% |
| CN[C@@H]1[C@H](O)[C@H](NC)[C@H]2O[C@]3(O)[C@H](O[C@@H]2[C@H]1O)O[C@H](C)C[C@H]3NC(=O)Cc1ccc(Cl)cn1 | Sodium-dependent noradrenaline transporter (SLC6A2, Homo sapiens, UniProt P23975) | ligand displacement, radioligand | – | 10 µM | – | inhibition | 3% |
| CN(C)[C@H]1C[C@@]23CC[C@@]4(O2)C(=CC[C@]2(C)[C@@H](c5ccc6ccncc6c5)CC[C@H]24)C=C3[C@@H](O)[C@@H]1O | Cyclin-dependent kinase 12 (CDK12, Homo sapiens, UniProt Q9NYV4) | ATP probe labelling, inhibitor, KiNativ profiling | – | 1 µM | – | inhibition | -1.2% |
| COc1ccccc1-c1n[nH]c2nc(NC3CCN(C(=O)Cc4ccc(F)cc4F)CC3)ncc12 | – | bead binding, competition bead pull-down, refers to: LINJ.34.0080 | Leishmania donovani axenic amastigote extract | 10 µM | relative to: vehicle | relative abundance | 1.14 |
| O=C(O)c1ccccc1/C=N/Nc1nc(-c2ccccc2Cl)cs1 | Discoidin domain-containing receptor 2 (DDR2, Homo sapiens, UniProt Q16832) | enzyme activity, inhibitor | – | 1 µM | – | inhibition | -11.6% |
| Cc1nc2cccc(OCC(C)(C)C(=O)NC(C)C)c2c(N)c1C(=O)[O-].[Na+] | Salmonella typhimurium | – | TA100 | 0.32 mg per plate, with S9, plate incorporation | – | revertant colonies per plate | 121 ± 9 |
| N[C@H](C(=O)N1CCCC1)C1CCN(c2nccc3c(-c4ncc(Cl)cc4Cl)cccc23)CC1 | Protein-arginine deiminase type-2 (PADI2, Homo sapiens, UniProt Q9Y2J8) | enzyme activity, inhibitor | – | 0.0983 µM, with: Ca2+ 0.25 mM | – | inhibition | 77.6% |
| O=C1c2ccccc2CCCN1CCCCN1CCN(c2cccc(Cl)c2Cl)CC1 | 5-hydroxytryptamine receptor 7 (HTR7, Homo sapiens, UniProt P34969) | radioligand binding | – | concentration not given, with: [3H]LSD | – | inhibition | 101% |

| Compound | tested on | assay | test system | conditions | how to read | quantity | value |
| --- | --- | --- | --- | --- | --- | --- | --- |
| CS(C)(=O)=Nc1ccc(-c2ccc(-c3nc4cc(O[C@@H]5CO[C@H]6[C@@H]5OC[C@H]6O)[nH]c4cc3F)cc2)cc1 | Tyrosine-protein phosphatase non-receptor type 1 (PTPN1, Homo sapiens, UniProt P18031) | enzyme activity, inhibitor | – | 10 µM | – | inhibition | -1% |
| CC(=O)NC[C@@H]1[C@@H](O)C[C@H]2[C@H](O)C[C@@H](CO)N12 | human placental β-N-acetylglucosaminidase | – | – | 0.0214 µM, run 1, with: p-nitrophenyl GlcNAc | – | inhibition | 25.8% |
| CC(C)[C@H]1NC(=O)C[C@H]2/C=C/CCSSC[C@@H](NC1=O)C(=O)N[C@H](Cc1cccc3ccccc13)C(=O)NCC(=O)O2 | Serine/threonine-protein kinase Nek4 (NEK4, Homo sapiens, UniProt P51957) | enzyme activity, inhibitor | – | 10 µM | – | inhibition | -0.168% |
| CN(/N=C/c1ccccc1C(=O)O)c1nc(-c2ccccc2Cl)cs1 | LYNb | enzyme activity | – | 1 µM | – | inhibition | 0.7% |
| O=C1NC(=O)c2c1c1cc(F)c[n+]3c1c1c2c2cc(O)ccc2[n]1[Ru-4]312([N]=C=S)[S+]3CC[S+]1CC[S+]2CC3 (centres unmarked) | MAP kinase-activated protein kinase 5 (MAPKAPK5, Homo sapiens, UniProt Q8IW41) | enzyme activity | – | 100 nM, human enzyme, with: 10 µM ATP | relative to: untreated | remaining activity | 66% |
| C[C@H](NCc1ccc(-c2ccc(C(F)(F)F)cc2)cc1)C(N)=O | Mitogen-activated protein kinase 10 (MAPK10, Homo sapiens, UniProt P53779) | cell-free assay, competition with immobilised ligand | – | 1 µM | – | inhibition | 14% |
| O=C1NC2(CC2)COc2ncc(F)cc2[C@H]2COCCN2c2ccn3ncc1c3n2 | – | – | Sprague-Dawley rat, female, serum | oral, 5 mg/kg/day, end of recovery, 4-week subacute toxicity | – | serum total bilirubin | 1.7 ± 0.3 µmol/L |
| OB(O)c1cnn(-c2cc(Cl)ncn2)c1 | Beta-lactamase (ampC, Escherichia coli K-12, UniProt P00811) | enzyme activity, CENTA hydrolysis | – | 1 µM | – | inhibition | 93% |
| Cc1ccc(N2CC3CN(C)CC3C2)cc1C(=O)N[C@H](C)c1cc(-c2cnn(C)c2)nc2ccccc12 (some centres unmarked) | Vero E6 | – | – | 125 µM | – | viability | 1.63% and 1.8% |
| C[n+]1cn([C@@H]2O[C@H](COP(=O)(O)NP(=O)([O-])OP(=O)(O)O)[C@@H](O)[C@H]2O)c2nc(N)nc(O)c21 | dcp2 with Dcp1 | – | – | 200 µM, 0.25 h | – | inhibition | 17.2% |
| O=C(CN1CN(c2ccccc2)C2(CCN(C(=O)c3cnc4[nH]ncc4c3)CC2)C1=O)NCC(F)(F)F | Ephrin type-A receptor 5 (EPHA5, Homo sapiens, UniProt P54756) | inhibitor | – | concentration not given | – | inhibition | < 50% |
| CCc1nnc(-c2c(OC)cc(-c3cnc4cc(-c5cnn(C)c5)ccn34)cc2OC)o1 | D(1A) dopamine receptor (DRD1, Homo sapiens, UniProt P21728) | antagonist radioligand, radioligand binding | – | 10 µM, SafetyScreen44 D1 | – | inhibition | 7% |
| C=CC(=O)Nc1cc(-c2nn(C3CCC(N4CCN(C(C)=O)CC4)CC3)c3ncnc(N)c23)ccc1Oc1ccccc1 (centres unmarked) | Serine/threonine-protein kinase VRK2 (VRK2, Homo sapiens, UniProt Q86Y07) | inhibitor, KiNativ profiling | biochemical | 2 µM | – | inhibition | 13.6% |
| CC(C)(C)C(=O)OCOP(=O)(OCOC(=O)C(C)(C)C)C1CCCN(O)C1=O (centres unmarked) | MDA-MB-468 | – | – | – | – | log GI50 | -6.01 log M |
| NCC1CCN(Cc2ccccc2F)CC1 | ache | enzyme activity, inhibitor, Ellman | – | 20 µM | – | inhibition | 44.2% |
| CN[C@@H]1[C@H](O)[C@H](NC)[C@H]2O[C@]3(O)[C@H](O[C@@H]2[C@H]1O)O[C@H](C)C[C@H]3NC(=O)Cc1cc(Cl)ccn1 | Alpha-1D adrenergic receptor (ADRA1D, Homo sapiens, UniProt P25100) | ligand displacement, radioligand | – | 10 µM | – | inhibition | -2% |
| COc1ccc(F)cc1S(=O)(=O)Nc1cnc2c(c1)C(=O)NCCO2 | GABAA receptor | radioligand binding | hippocampus | 10 µM, with: Ro 15-1788 | – | inhibition | -5% |
| C1CCNC1 | ache | enzyme activity, inhibitor, Ellman | – | 20 µM | – | inhibition | 36.6% |
| CC(C)(C)C1CCC(c2cc3ccccc3s2)(N2CCCCC2)CC1 (centres unmarked) | Inorganic pyrophosphatase (ppa, Escherichia coli, UniProt P0A7A9) | inhibitor, counter-screen, coupling enzyme alone | – | 30 µM | – | inhibition | 21.6% |
